# Results from different studies.
# Every numbered part comes from another study and shows a few of its results, in no order.

# Set 1 — method: protein binding microarray; molecule type: double-stranded DNA, one strand shown; matrix: in vitro; tested at: not given; reference: not given; reading: higher = stronger binding
# Target: Histone acetyltransferase KAT6A, both winged helices, GST fusion (KAT6A, Homo sapiens, UniProt Q92794, residues 1-181)
# Setting: 8-mer, flanks averaged, mean of 2 arrays, mostly near background
# Target sequence (chain): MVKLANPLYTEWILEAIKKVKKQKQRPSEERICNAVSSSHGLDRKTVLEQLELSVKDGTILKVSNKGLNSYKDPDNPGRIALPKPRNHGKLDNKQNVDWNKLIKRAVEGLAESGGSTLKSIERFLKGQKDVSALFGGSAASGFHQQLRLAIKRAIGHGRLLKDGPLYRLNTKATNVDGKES
Strand,E-score
CATTACAG,-0.0552
CCTTGTCG,-0.037
CTGCCGAC,0.117
ATGAGGCC,-0.0158
AGCAGCTG,-0.197
CTTCCCTC,-0.129
ACGGCATG,0.274

# Set 2 — method: universal PBM; molecule type: double-stranded DNA, one strand shown; matrix: in vitro; tested at: 600 nM; reading: higher = stronger binding
# Target: Sal-like protein 4, full length isoform A (SALL4, Homo sapiens, UniProt Q9UJQ4, residues 1-1053)
# Sequence of UniProt Q9UJQ4 (whole entry, looked up): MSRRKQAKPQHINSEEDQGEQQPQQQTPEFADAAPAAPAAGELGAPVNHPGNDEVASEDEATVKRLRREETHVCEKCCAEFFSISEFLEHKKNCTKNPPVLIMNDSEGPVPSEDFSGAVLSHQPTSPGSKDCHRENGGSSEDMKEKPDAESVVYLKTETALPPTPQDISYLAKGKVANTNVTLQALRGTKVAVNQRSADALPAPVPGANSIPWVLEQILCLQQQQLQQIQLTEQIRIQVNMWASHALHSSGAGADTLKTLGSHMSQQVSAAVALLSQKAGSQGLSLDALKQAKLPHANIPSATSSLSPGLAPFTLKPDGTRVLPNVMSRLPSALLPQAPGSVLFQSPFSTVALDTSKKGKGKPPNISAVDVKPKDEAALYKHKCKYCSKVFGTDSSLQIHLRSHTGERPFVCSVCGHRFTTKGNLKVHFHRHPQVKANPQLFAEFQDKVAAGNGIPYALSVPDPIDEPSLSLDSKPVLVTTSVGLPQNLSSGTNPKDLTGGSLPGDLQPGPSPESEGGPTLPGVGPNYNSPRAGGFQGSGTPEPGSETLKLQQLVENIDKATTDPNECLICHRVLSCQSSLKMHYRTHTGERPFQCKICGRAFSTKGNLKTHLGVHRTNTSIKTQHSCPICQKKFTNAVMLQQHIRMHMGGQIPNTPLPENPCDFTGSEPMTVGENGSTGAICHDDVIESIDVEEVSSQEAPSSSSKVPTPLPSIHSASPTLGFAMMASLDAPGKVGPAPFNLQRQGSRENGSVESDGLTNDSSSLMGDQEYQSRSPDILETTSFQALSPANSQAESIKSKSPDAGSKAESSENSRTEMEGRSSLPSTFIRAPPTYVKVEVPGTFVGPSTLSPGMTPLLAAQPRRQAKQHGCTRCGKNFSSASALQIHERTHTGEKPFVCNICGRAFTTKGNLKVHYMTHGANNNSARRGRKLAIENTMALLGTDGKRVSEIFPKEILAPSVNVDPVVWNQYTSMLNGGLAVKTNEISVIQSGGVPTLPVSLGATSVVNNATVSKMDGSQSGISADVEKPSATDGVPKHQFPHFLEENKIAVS
# Setting: 8-mer, flanks averaged, mean of replicates
Strand,E-score
GCCAGTTA,0.0253
TCGCGCGA,-0.139
GACCGGGA,-0.322
AATTATTG,0.443
GCCCGCGA,-0.305
ATTTGAGG,0.0725
ACACGGCT,-0.0899
AAAGCTAG,0.0657

# Set 3 — method: competition protein-binding microarray; molecule type: double-stranded DNA, one strand shown; matrix: in vitro; tested at: 2 µM; added: Cbf1 competitor, 0.05 µM; reading: higher = stronger binding
# Target: Phosphate system positive regulatory protein PHO4, full length, GST-tagged (PHO4, Saccharomyces cerevisiae, UniProt P07270, residues 1-312)
# Setting: whole 60-bp probe, lowest competitor level
# Residues (chain): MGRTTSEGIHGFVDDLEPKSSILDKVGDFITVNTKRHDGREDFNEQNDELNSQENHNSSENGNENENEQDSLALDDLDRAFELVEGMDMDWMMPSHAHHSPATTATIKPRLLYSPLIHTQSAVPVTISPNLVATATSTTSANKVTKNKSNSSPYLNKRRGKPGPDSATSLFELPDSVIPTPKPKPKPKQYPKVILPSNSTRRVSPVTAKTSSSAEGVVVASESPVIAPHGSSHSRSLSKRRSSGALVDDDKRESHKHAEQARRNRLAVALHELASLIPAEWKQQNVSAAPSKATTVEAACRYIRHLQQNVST
Strand,fluorescence intensity
CTAACGAAGGTTTGCTATGTGGGTGACAAGCCAAGTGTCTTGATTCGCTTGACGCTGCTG,4710 a.u.
AAAGCGGTAATTTGACCGGTGGGTGCAGATATCTATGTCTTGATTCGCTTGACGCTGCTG,3870 a.u.
TCAAATATTCCATCGCACGTGTAGTACCCAATGGTTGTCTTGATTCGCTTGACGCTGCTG,19000 a.u.
CCCATTCAATTCGCTCTCGTGACGGAATCGTCGGGAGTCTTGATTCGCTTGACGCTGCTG,6820 a.u.
AAAGCGGTAATTTGGTGAGTGGGTGCAGATATCTATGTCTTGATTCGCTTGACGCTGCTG,5020 a.u.
TAGGGGCTCTCACAAAACGGGCACTACCTTTTGTTTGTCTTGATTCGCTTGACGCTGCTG,4050 a.u.

# Other studies, line by line
Molecule,target,test,system,conditions,scale,measurement,result
"PhoQ, residues 284 288 289 292 302 303 NLSRDF","PhoP, residues 12 14 15 18 19 AGCRL (Escherichia coli, UniProt P23836)","Sort-seq, measured: YFP reporter",E. coli,"PhoQ-PhoP variant library, added: 10 µM Mg2+","reference: high Mg2+ state, higher = stronger signaling",fold induction,5.93

# Repeated from above (set 3):
Strand,fluorescence intensity
TCAAATATTCCATCGCACGTGTAGTACCCAATGGTTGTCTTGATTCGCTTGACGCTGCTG,19000 a.u.
CCCATTCAATTCGCTCTCGTGACGGAATCGTCGGGAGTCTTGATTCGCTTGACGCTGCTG,6820 a.u.
AAAGCGGTAATTTGGTGAGTGGGTGCAGATATCTATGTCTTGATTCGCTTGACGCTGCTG,5020 a.u.
